Measured values of several laboratories.
“And” joins repeats or separate records; there may be more than shown.
Target: Death-associated protein kinase 3 (DAPK3, Homo sapiens, UniProt O43293)

`C=CC(=O)N1CCc2ccc(-n3c(=O)ccc4cnc5ccc(-c6cnn(C)c6)cc5c43)cc21` has a remaining binding of 100% (KINOMEscan; 1 µM; reference: DMSO control).
The remaining binding of `Nc1ncc2c(n1)-c1c([nH]c3ccc(C4=CCOCC4)cc13)CCC2` is reported as 100% (binding, competition with immobilised ligand; 1 µM).
With `C=CC(=O)Nc1cccc(-c2cnc3[nH]cc(C(=O)NC(C)(C)C)c3n2)c1` the inhibition was -1% (enzyme activity, inhibitor; 0.1 µM).
With `COc1c(OCCCN2CCOCC2)ccc2c1N=C(NC(=O)c1cnc(N)nc1)N1CCN=C21` the remaining activity was 101% (kinase activity, inhibitor; 1 µM; reference: untreated control).
The remaining activity of `COCC12C(=O)NC3C4(C(OC)CC1O)C1CC5(O)C(OC)C(O)C(OC(C)=O)(C1C5OC(=O)c1ccccc1)C3(O)C(OC)C24` (stereo not drawn) is reported as 107% and 110% (kinase activity, inhibitor, ProQinase kinase profiling; 25 µM; reference: control).
`NC(=O)[C@@H](O)C[C@H]1CCc2sc3ncnc(O[C@H]4CC[C@H](N5CCOCC5)CC4)c3c21` has an inhibition of -5% (enzyme activity, inhibitor; 10 µM).
`C=CC(=O)N1Cc2nc(-c3cc(-c4cc(Cl)cnc4Cl)c(F)cc3F)n(-c3ccncn3)c2C1` has an inhibition of 4.5% (cell-free assay, inhibitor; 1 µM).
The inhibition of `CN1CC[C@@H](COc2cnc(C#N)cc2-c2ccn3nc(NC(=O)C4CC4)cc3c2)C1` is reported as 1% (enzyme activity, inhibitor; 1 µM).
With `CNC1C[S+]2CC[S+]3CC[S+](C1)[Ru-4]321([N]=C=S)[n]2c3ccc(OC)cc3c3c4c(c5cc(F)c[n+]1c5c32)C(=O)NC4=O` (stereo not drawn) the remaining binding was 5.7% (KinomeScan; 0.1 µM; reference: untreated).
With `COc1cc(Nc2nccc(-c3cnn4nc(OC)ccc34)n2)cc(C(F)(F)F)c1` the remaining binding was 99% (binding, competition with immobilised ligand; 1 µM).
For `O=C(Cc1ccc(OCc2ccccc2)cc1)NC1(C(=O)O)CCN(C(=O)c2ccc(-c3cccc(Cl)c3)cc2)CC1`, “activity vs control” read 110% (enzyme activity, inhibitor; 10 µM).
The remaining activity of `COc1ccc(NC(=O)Nc2ccc3c(c2)C(=O)N(C(C)CO)CC(C)C(CN(C)Cc2ccc4c(c2)OCO4)O3)cc1` (stereo not drawn) is reported as 105% (kinase activity, KinaseProfiler; 0.03 µM, species human; reference: control).
For `CC(C)=CC1OC(C)(C)C2C=C3C(=O)C(Cl)=CC(O)C3C3C(O)C4OC4C(=O)C132` (stereo not drawn), the remaining binding was 64% (cell-free assay, competition with immobilised ligand; 10 µM).
The inhibition of `Cc1cccc(O[C@H]2CCC[C@@H](C(C)CNCc3ccncc3)C2)c1` (relative stereo) is reported as -4% (enzyme activity, inhibitor; 10 µM).
The remaining binding of `COc1c(Cl)cccc1Nc1c(-c2ccncc2C#C[C@@]2(C)CCCN2C(=O)/C=C/CN(C)C)[nH]c2c1C(=O)NCC2` is reported as 100% (binding, competition with immobilised ligand; 3 µM).
